Experimental data from different studies.
Protocols differ between the studies behind these lines. Numbers after ± are the reported error.
4'-phosphopantetheinyl transferase PptT: 4'-phosphopantetheinyl transferase PptT (Mycobacterium tuberculosis, UniProt O33336)
Chain of UniProt O33336 (whole entry, looked up): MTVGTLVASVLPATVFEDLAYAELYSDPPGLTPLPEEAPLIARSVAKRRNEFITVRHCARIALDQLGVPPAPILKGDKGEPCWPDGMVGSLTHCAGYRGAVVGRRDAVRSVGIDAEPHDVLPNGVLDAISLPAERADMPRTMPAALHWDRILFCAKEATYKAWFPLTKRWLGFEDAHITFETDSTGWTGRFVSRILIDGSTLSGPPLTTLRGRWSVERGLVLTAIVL
gpmI: 2,3-bisphosphoglycerate-independent phosphoglycerate mutase (gpmI, Mycoplasma pneumoniae, UniProt P75167)
Chain of UniProt P75167 (whole entry, looked up): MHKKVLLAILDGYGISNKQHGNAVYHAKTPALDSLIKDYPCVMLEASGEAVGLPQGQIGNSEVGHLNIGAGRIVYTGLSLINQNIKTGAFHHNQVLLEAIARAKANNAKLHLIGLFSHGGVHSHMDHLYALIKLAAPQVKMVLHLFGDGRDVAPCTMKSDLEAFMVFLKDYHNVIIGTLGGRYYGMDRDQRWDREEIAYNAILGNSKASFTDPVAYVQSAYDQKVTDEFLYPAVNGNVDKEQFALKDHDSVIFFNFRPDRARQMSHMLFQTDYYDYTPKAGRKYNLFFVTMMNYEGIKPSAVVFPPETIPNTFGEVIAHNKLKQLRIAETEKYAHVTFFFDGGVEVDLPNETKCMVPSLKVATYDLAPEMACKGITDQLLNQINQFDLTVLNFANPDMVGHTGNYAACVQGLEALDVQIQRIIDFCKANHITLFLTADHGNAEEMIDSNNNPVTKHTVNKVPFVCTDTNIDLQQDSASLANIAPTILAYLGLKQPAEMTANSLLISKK
2,3-bisphosphoglycerate-independent phosphoglycerate mutase: 2,3-bisphosphoglycerate-independent phosphoglycerate mutase (Wuchereria bancrofti, UniProt B1P0R4)
Chain of UniProt P21554 (whole entry, unmodified, looked up): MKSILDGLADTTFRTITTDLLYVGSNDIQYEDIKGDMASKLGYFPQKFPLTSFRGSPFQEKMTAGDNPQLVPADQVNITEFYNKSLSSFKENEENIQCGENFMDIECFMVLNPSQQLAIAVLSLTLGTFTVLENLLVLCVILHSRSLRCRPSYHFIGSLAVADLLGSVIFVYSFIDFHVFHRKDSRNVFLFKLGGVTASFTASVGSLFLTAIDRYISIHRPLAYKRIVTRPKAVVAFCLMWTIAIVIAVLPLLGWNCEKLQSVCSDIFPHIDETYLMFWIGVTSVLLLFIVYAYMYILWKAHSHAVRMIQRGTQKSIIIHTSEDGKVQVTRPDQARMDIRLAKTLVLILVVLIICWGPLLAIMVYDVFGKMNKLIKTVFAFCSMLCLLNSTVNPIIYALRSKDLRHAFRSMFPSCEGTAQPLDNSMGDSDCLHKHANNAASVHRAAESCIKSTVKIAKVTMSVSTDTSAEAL
Chain of UniProt P9WFK7 (whole entry, looked up): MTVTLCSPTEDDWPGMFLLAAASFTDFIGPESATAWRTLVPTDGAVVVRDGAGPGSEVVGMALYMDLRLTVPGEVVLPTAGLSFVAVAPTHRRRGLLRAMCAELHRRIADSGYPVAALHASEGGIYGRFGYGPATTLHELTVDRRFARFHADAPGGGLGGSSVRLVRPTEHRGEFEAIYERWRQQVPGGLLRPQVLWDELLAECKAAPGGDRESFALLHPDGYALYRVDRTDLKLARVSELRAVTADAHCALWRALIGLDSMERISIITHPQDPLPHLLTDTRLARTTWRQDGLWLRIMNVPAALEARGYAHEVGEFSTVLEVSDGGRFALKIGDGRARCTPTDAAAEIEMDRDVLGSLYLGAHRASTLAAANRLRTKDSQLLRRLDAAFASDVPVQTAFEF
Chain of UniProt P33033 (whole entry, looked up): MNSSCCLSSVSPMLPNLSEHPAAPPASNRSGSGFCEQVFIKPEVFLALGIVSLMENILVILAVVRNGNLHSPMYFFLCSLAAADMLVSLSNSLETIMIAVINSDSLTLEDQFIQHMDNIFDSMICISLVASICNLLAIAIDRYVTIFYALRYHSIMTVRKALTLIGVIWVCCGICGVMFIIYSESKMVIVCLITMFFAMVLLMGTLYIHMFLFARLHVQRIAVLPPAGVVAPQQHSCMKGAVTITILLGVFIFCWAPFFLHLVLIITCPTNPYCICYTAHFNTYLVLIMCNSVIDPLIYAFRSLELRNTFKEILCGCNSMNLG
Chain of UniProt P33261 (whole entry, looked up): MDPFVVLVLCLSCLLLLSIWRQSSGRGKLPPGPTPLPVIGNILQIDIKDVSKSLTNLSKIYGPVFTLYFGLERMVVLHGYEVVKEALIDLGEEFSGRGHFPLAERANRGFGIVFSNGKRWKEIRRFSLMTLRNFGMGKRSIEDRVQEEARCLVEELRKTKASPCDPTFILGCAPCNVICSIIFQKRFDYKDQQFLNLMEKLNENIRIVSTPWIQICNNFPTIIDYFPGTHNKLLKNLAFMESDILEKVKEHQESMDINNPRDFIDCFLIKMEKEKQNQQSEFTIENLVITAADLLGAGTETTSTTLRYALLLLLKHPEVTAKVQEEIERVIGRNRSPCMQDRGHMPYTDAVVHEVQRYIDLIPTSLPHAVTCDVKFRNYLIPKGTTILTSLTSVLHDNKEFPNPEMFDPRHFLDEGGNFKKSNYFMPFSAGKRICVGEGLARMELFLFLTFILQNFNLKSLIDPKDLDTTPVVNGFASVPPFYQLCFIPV

C#CCN(Cc1ccc2nc(C)[nH]c(=O)c2c1)c1ccc(C(=O)N[C@@H](CCC(=O)O)C(=O)O)cc1
IC50 (4'-phosphopantetheinyl transferase PptT; enzyme activity, inhibitor, fluorescence polarization; enzyme 100 nM): 50 nM

CC(C)[C@H](N)C(=O)N[C@@H](Cc1ccc(O)cc1)C(=O)N[C@@H](CCCCN)C(=O)N[C@H](C(=O)N[C@@H](CCCCN)C(=O)N[C@H](C(=O)N[C@@H](CCCCN)C(=O)N[C@H](C(=O)N[C@@H](CCCCN)C(=O)N[C@H](C(=O)N[C@@H](CCCCN)C(=O)N[C@H](C(=O)N[C@@H](CCCCN)C(=O)N[C@H](C(=O)N[C@@H](CCCCN)C(=O)N[C@H](C(=O)N[C@@H](CCCCN)C(=O)N[C@H](C(=O)O)[C@@H](C)O)C(C)C)[C@@H](C)O)C(C)C)[C@@H](C)O)C(C)C)[C@@H](C)O)C(C)C
kd2 (binding, SPR two-state model; rVλ6Wil fibrils; 300 nM): 0.0028 s⁻¹

CCCCCc1cc(O)c2c(c1)OC(C)(C)C1CCC(C)=CC21 (single isomer, unassigned; (-))
Ki (CYP2C19 (Homo sapiens, UniProt P33261); enzyme activity, inhibitor; human, liver microsomes; pH 7.4): 4100 nM

CC(C)(C)C1CCc2c(sc3nc(SCC(=O)NCCN4CCCCC4)nc(N)c23)C1 (stereo not drawn)
IC50 (eis (Mycobacterium tuberculosis, UniProt P9WFK7); inhibitor): 10000 ± 4000 nM

CN1C(=O)[C@H](CCC(=O)O)NC(=O)[C@H](Cc2ccc(O)cc2)NC(=O)[C@H](CCCNC(=N)N)NC(=O)[C@@H](Cc2ccc(O)cc2)NC(=O)CSC[C@@H](C(N)=O)NC(=O)[C@H](CCCCN)NC(=O)[C@@H]2CCCN2C(=O)[C@H](CS)NC(=O)[C@H](CCC(=O)O)NC(=O)[C@H](Cc2ccc(O)cc2)N(C)C(=O)[C@H](CCCCN)NC(=O)[C@H](Cc2ccc(O)cc2)NC(=O)[C@@H]1Cc1ccc(O)cc1
AC50 (gpmI; biochemical): 1410 nM

Cc1nc(=O)c2cc(CN(C)c3cccc(C(=O)N[C@@]4(C(=O)O)CCC[C@H](C(=O)O)C4)c3)ccc2[nH]1
IC50 (4'-phosphopantetheinyl transferase PptT; enzyme activity, inhibitor, fluorescence polarization; enzyme 100 nM): 440 nM

COc1ccc(C[C@H]2C(=O)N[C@@H](Cc3ccc(O)cc3)C(=O)N3CCC[C@H]3C(=O)NCC(=O)N[C@@H]([C@@H](C)O)C(=O)N[C@@H](C)C(=O)N[C@@H](CCC(N)=O)C(=O)N(C)[C@@H](Cc3ccc(O)cc3)C(=O)N[C@@H]([C@@H](C)O)C(=O)N[C@H](C(N)=O)CSCC(=O)N[C@H](Cc3ccc(O)cc3)C(=O)N[C@@H](Cc3c[nH]c4ccccc34)C(=O)N(C)[C@@H](Cc3ccc(O)cc3)C(=O)N[C@@H](CC(=O)O)C(=O)N(C)[C@@H](CO)C(=O)N(C)[C@@H](Cc3ccc(O)cc3)C(=O)N2C)cc1
AC50 (gpmI; biochemical): 67.6 nM

O=S(=O)(O)CCOCC1CSSCC(COCCS(=O)(=O)O)SS1 (stereo not drawn)
Kd (Response regulator PhoP (Mycobacterium tuberculosis, UniProt P71814); binding, LSPR): 14500 ± 100 nM

CC(=O)N[C@H](Cc1c[nH]cn1)C(=O)N[C@H](CCCCN)C(=O)N[C@H](CCCCN)C(=O)N[C@H](CCCCN)C(=O)N[C@H](CCCCN)C(=O)N[C@H](CCCCN)C(=O)N[C@H](CCCNC(=N)N)C(=O)N[C@H](CC(C)C)C(=O)N1CCC[C@@H]1C(=O)N1CCC[C@@H]1C(=O)N[C@H](CCCNC(=N)N)C(=O)N[C@H](CCCNC(=N)N)C(=O)N[C@H](CCCNC(=N)N)C(=O)N[C@H](CCC(N)=O)C(=O)N[C@H](CCCNC(=N)N)C(=O)N[C@H](CCCNC(=N)N)C(=O)N[C@H](CCCCN)C(=O)N[C@H](CCCCN)C(=O)N[C@H](CCCNC(=N)N)C(=O)NCC(=O)N[C@H](Cc1ccc(O)cc1)C(N)=O
Ki (PRKACA (Homo sapiens, UniProt P17612); enzyme activity, inhibitor): 9900 nM

COc1ccc(C[C@H]2C(=O)N(C)[C@@H](Cc3ccc(O)cc3)C(=O)N(C)[C@@H](Cc3ccccc3)C(=O)N[C@@H](CC(N)=O)C(=O)NCC(=O)N(C)[C@@H](Cc3ccc(O)cc3)C(=O)N[C@@H](CC(N)=O)C(=O)N[C@@H](Cc3c[nH]cn3)C(=O)N[C@@H](Cc3ccc(O)cc3)C(=O)N[C@@H](Cc3c[nH]c4ccccc34)C(=O)N[C@H](C(N)=O)CSCC(=O)N[C@H](Cc3ccc(O)cc3)C(=O)N[C@@H](CC(=O)O)C(=O)N[C@@H](CO)C(=O)N[C@@H](Cc3ccc(O)cc3)C(=O)N[C@@H](C)C(=O)N2C)cc1
AC50 (2,3-bisphosphoglycerate-independent phosphoglycerate mutase; biochemical): 81.3 nM

CCCCCn1cc(C(=O)c2ccc3c(c2)CC(C)(C)C3)c2ccccc21
EC50 (CNR1 (Homo sapiens, UniProt P21554); β-arrestin recruitment, agonist, BRET): 3630 nM

CC1=NN(c2ccc(C(=O)O)cc2)C(=O)C1=Cc1ccc(-c2cc(C)c(C)cc2[N+](=O)[O-])o1
IC50 (4'-phosphopantetheinyl transferase PptT; enzyme activity, inhibitor, fluorescence polarization; enzyme 100 nM): 3400 nM

C[C@@H](NC(=O)[C@@H](CCC(N)=O)NC(=O)[C@@H](C)NC(=O)[C@@H](CCCCN)NC(=O)[C@@H](CCC(N)=O)NC(=O)[C@@H](C)NC(=O)[C@@H](CCCCN)NC(=O)[C@@H](CCC(N)=O)NC(=O)[C@@H](C)NC(=O)[C@@H](CCC(N)=O)NC(=O)[C@@H](CCCCN)NC(=O)[C@@H](C)NC(=O)[C@@H](CCC(N)=O)NC(=O)[C@@H](CCCCN)NC(=O)[C@@H](C)NC(=O)[C@@H](CCC(N)=O)NC(=O)[C@@H](C)NC(=O)[C@@H](CCCCN)NC(=O)[C@@H](CCC(N)=O)NC(=O)[C@@H](C)NC(=O)[C@@H](CCCCN)NC(=O)[C@@H](CO)NC(=O)[C@@H](Cc1ccc(O)cc1)NC(=O)CNC(=O)CNC(=O)CN)C(=O)N[C@H](CCCCN)C(=O)N[C@H](CCC(N)=O)C(=O)N[C@H](C)C(=O)N[C@H](CCCCN)C(=O)N[C@H](CCC(N)=O)C(=O)O
kd2 (binding, SPR two-state model; rVλ6Wil fibrils; 300 nM): 0.0017 s⁻¹

Cc1nc(=O)c2cc(CN(C)c3ccc(C(=O)NCCN4C(=O)NC(=O)[C@H]4C)s3)ccc2[nH]1
IC50 (4'-phosphopantetheinyl transferase PptT; enzyme activity, inhibitor, fluorescence polarization; enzyme 100 nM): 2690 nM

CC(=O)N[C@@H](CCCNC(=N)N)C(=O)N[C@@H](CCCNC(=N)N)C(=O)N[C@H](C(=O)N1Cc2ccccc2C[C@H]1C(N)=O)[C@@H](c1ccccc1)c1c[nH]c2ccccc12
EC50 (Melanocortin receptor 3 (Mus musculus, UniProt P33033); cAMP, agonist, AlphaScreen): > 100000 nM

CN1C(=O)[C@H](Cc2ccc(O)cc2)NC(=O)CNC(=O)[C@H](Cc2ccc(O)cc2)NC(=O)[C@H](CCC(=O)O)NC(=O)[C@H](Cc2ccc(O)cc2)N(C)C(=O)[C@H](Cc2ccc(O)cc2)N(C)C(=O)[C@H](CCC(N)=O)NC(=O)[C@H](Cc2c[nH]c3ccccc23)NC(=O)[C@H](Cc2ccc(O)cc2)NC(=O)[C@@H](Cc2ccc(O)cc2)NC(=O)CSC[C@@H](C(N)=O)NC(=O)[C@H](CCCCN)NC(=O)[C@@H]1Cc1ccc(O)cc1
AC50 (2,3-bisphosphoglycerate-independent phosphoglycerate mutase; biochemical): 468 nM

Cc1nc(=O)c2cc(CN(C)c3ccc(C(=O)NCc4ccccn4)s3)ccc2[nH]1
IC50 (4'-phosphopantetheinyl transferase PptT; enzyme activity, inhibitor, fluorescence polarization; enzyme 100 nM): 2310 nM

N=C(N)NCCC[C@@H]1NC(=O)[C@@H](Cc2ccc(O)cc2)NC(=O)CSC[C@@H](C(=O)N2CCC[C@H]2C(=O)N[C@@H](CCCCN)C(=O)N[C@@H](CS)C(N)=O)NC(=O)[C@H](CCC(=O)O)NC(=O)[C@H](Cc2ccc(O)cc2)NC(=O)[C@H](CCCCN)NC(=O)[C@H](Cc2ccc(O)cc2)NC(=O)[C@H](Cc2ccc(O)cc2)NC(=O)[C@H](CCC(=O)O)NC(=O)[C@H](Cc2ccc(O)cc2)NC1=O
AC50 (gpmI; biochemical): 19500 nM

Cc1sc(-n2c(C)c3c(C)nnc(C)c3c2C)nc1-c1ccc(Br)cc1
IC50 (4'-phosphopantetheinyl transferase PptT; enzyme activity, inhibitor, FP): 350 nM

CC(C)[C@@H]1NC(=O)[C@H](CCC(N)=O)NC(=O)[C@@H](Cc2ccc(O)cc2)NC(=O)CSC[C@@H](C(N)=O)NC(=O)[C@H](CC(=O)O)NC(=O)[C@H](CCC(=O)O)NC(=O)[C@H](Cc2c[nH]c3ccccc23)NC(=O)[C@@H]2CCCN2C(=O)[C@H](CO)N(C)C(=O)[C@H](C)NC(=O)[C@H](Cc2c[nH]c3ccccc23)NC(=O)[C@H](Cc2c[nH]c3ccccc23)NC(=O)[C@H](C(C)C)NC(=O)[C@H]([C@@H](C)O)NC1=O
AC50 (gpmI; biochemical): 4.79 nM

CCCCCn1cc(C(=O)c2cccc3ccccc23)c2ccccc21
EC50 (CNR1 (Homo sapiens, UniProt P21554, I267L/L193I/L359V); Gαi1 engagement, agonist, BRET): 12.9 nM
